Experimental data of several laboratories.
Numbered parts are unrelated; each lists some results of a single study. Positions count from the first letter of the parent shown.

Block 1
Target: CCNB1, cyclin fold, Cln2 fusion (human)
Technique: yeast growth competition, sequencing
Medium: yeast
Notes: weak parent motif
Relative to: not given
Direction: higher = stronger binding
Starting sequence: CDKN1A docking peptide (human); SKACRRLFGPVDS
Change	normalised enrichment score
SKACRRLFYPVDS [G9Y]	0.643
SKSCRRLFGPVDS [A3S]	-0.219
SKACRRLFGPTDS [V11T]	0.503
SKACRRLFTPVDS [G9T]	0.302
SKACRRLFGQVDS [P10Q]	-0.034
SKACRRLFGPVTS [D12T]	0.247
SKACRRLIGPVDS [F8I]	0.407
SKACRRLFGHVDS [P10H]	0.21
SKARRRLFGPVDS [C4R]	0.336
SKACRRGFGPVDS [L7G]	0.257
SKACWRLFGPVDS [R5W]	0.096
SKACRRLMGPVDS [F8M]	0.449
SKYCRRLFGPVDS [A3Y]	0.115
SKANRRLFGPVDS [C4N]	0.396
SKACYRLFGPVDS [R5Y]	0.0105
SKACRRLFIPVDS [G9I]	1.07

Block 2
Target: Ras GTPase-activating protein-binding protein 1, RRM domain (G3BP1, Homo sapiens, UniProt Q13283)
Sequence of UniProt Q13283 (whole entry, looked up): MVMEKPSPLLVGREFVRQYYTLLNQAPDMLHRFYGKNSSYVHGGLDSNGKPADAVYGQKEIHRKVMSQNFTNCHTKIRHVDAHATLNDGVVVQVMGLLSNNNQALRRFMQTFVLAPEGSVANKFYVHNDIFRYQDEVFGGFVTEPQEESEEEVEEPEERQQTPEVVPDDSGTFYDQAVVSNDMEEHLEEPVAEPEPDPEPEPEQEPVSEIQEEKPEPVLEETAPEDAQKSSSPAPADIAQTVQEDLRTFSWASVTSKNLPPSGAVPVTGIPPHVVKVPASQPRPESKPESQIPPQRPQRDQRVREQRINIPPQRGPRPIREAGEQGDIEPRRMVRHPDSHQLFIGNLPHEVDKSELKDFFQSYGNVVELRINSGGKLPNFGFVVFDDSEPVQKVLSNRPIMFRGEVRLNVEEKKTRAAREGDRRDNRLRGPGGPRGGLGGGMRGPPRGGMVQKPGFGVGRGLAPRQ
Technique: RNA Bind-n-Seq
Form: RNA
Medium: in vitro
Concentration: 1 µM
Notes: whole 134-nt RNA, ends assumed
With: 150 mM KCl
Relative to: input library
Direction: higher = stronger binding
Oligonucleotide	log2 enrichment
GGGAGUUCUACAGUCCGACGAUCUCGGAUGGCUUCGCAUUUCCCCAAUACCCCAUUAAACCGUAUCAUCUGAAGAGGAUCCACAGAGCUGUCUUACAUGGUAAUCUAGAGAAAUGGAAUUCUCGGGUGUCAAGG	-0.172
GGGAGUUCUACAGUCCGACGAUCCCUGUGCUACACAUCGUAUGUACCGAAUCGGGUUUUUGGGUUUUUUUGGGUUUUUUUGGGAAAGUAUUAUGUUACGCCGUUCGGAUCUGCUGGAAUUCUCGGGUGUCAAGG	-0.244
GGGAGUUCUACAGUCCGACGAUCUUCUGACUCAGAAUGUGCCAAAAAGGCUUUGGAACAACUUAAUGGAUUUGAACUAGCAGGAAGACCAAUGAAAGUUGGUCAUGUUACUGAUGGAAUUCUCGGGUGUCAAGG	-0.198
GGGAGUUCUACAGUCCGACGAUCUCCUGUGCUACACAUCGUAUGUACCGAAUCGGGGUUUUUUUGGGGUGGGGUUUUUGGGGAAAGUAUUAUGUUACGCCGUUCGGAUCUGCAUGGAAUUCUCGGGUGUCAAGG	0.552
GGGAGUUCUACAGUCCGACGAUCUCCUGUGCUACACAUCGUAUGUACCGAAUCGGCCCCCCGGGGCCCCCCGGGCCCCCCGGGAAAGUAUUAUGUUACGCCGUUCGGAUCUGCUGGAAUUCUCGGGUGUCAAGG	-0.481
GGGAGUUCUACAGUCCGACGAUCCUCAAGUCCUGUGCUACACAUCGUAUGUACCGAAUCGGGUUUGGGUGGGUGGGAAAGUAUUAUGUUACGCCGUUCGGAUCUGCACUUCCAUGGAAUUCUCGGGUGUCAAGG	0.677
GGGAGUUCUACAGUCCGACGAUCCAAGUCCUGUGCUACACAUCGUAUGUACCGAAUCGGGUGGGAGGGAAAAAAAGGGAAAGUAUUAUGUUACGCCGUUCGGAUCUGCACUUCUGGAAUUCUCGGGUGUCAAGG	0.438
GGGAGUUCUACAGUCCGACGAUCUCCUGUGCUACACAUCGUAUGUACCGAAUCGGGCCCCCCGGCCCCCCGGGGCCCCCCGGAAAGUAUUAUGUUACGCCGUUCGGAUCUGCAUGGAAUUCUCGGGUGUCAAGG	-0.302
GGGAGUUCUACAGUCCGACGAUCAAGUCCUGUGCUACACAUCGUAUGUACCGAAUCGGGGAAAAAGGGGUGGGGAGGGGAAAGUAUUAUGUUACGCCGUUCGGAUCUGCACUUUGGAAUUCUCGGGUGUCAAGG	0.678

Block 3
Target: ABI1, truncated, D143A, DHFR fusion (Arabidopsis thaliana)
Technique: DHFR PCA, deep sequencing
Medium: yeast
Notes: methotrexate growth selection, single substitutions
With: (+)-ABA 17 µM
Relative to: wild-type fitted maximum
Direction: higher = stronger binding
Starting sequence: PYL1, truncated, DHFR fusion (Arabidopsis thaliana); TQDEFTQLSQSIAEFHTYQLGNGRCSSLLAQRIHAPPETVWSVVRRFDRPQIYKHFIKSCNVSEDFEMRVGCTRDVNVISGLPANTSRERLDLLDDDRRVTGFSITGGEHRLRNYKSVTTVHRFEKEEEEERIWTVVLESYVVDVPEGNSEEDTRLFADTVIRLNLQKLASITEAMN
Change	relative binding score
V43A	33.7%
D95A	12.7%
W134F	106%
T86C	78.9%
Y141M	-3.34%
R111H	-0.0745%
R49V	58.2%
T160S	52.5%
A35R	-9.54%
T17Y	36.2%
M68S	46.5%

Block 4
Target: Interferon regulatory factor 3, full length, phosphomimetic (IRF3, Homo sapiens, UniProt Q14653, residues 1-427, S386D/S396D/S398D/S402D/T404D/S405D)
Sequence of UniProt Q14653 (whole entry, unmodified, looked up): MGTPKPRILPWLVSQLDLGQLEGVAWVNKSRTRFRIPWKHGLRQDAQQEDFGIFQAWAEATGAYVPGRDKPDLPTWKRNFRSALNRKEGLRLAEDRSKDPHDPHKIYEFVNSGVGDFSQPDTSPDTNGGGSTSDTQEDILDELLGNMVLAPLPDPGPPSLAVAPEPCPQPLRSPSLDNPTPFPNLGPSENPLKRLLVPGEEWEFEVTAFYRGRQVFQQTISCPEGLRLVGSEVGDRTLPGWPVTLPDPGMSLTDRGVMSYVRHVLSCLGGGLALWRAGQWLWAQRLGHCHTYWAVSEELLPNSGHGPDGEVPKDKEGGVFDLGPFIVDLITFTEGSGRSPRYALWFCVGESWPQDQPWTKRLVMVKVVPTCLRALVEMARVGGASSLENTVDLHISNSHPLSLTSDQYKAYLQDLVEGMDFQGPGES
Technique: protein-binding microarray
Form: double-stranded DNA, one strand shown
Medium: in vitro
Concentration: 2540 nM top
Notes: 60-bp whole probe
With: salmon DNA 0.4 mg/ml
Relative to: random background probes
Direction: higher = stronger binding
Shared flanks, not repeated: GCCTAGCAC … GTCTTGATTCGCTTGACGCTGCTG
Oligonucleotide	fitted relative affinity
TTAGATTCCAGTATCGATTAGTGCTAG	2.53 z-score
GACGATTTCAGTCTCGAGTCGTGCTAG	2.68 z-score
TTAGGTATCTTACTGCTTTAGTGCTAG	0.137 z-score
GACGGTTTCGACTTTTGGGACGTGCTA	3.48 z-score
TCAGATTTCTCAAACAGACTGTGCTAG	0.701 z-score
GACGGTCTCCTTTCCCTGACGTGCTAG	3.98 z-score
TTAGGACTGGACACTGGTTTAGTGCTA	-0.807 z-score
GACGGTTTCGACACTGCGGACGTGCTA	3.27 z-score
GACGGTTTCCTAGTGCTGACGTGCTAG	5.1 z-score
GGCGATCTCAGTCTCGAGACGTGCTAG	0.324 z-score
GACGGTTTCCTTCTCCTTACGTGCTAG	9.91 z-score
GACGGACTGGGTACCGGGACGTGCTAG	-0.535 z-score
GACTATTTCAGTTTCGAGACGTGCTAG	4.04 z-score
CTGCCTAACATGCTTCGAGATGTGCTA	-0.0549 z-score
CTTTGTTTTTTTCTATATGCGTGCTAG	1.67 z-score
TTAGGTATTCTTTTCCTTTAGTGCTAG	2.46 z-score
GACGGTTTCCTTTTCCTAACGTGCTAG	11.1 z-score
GACGGTTTACTTTCCCTGACGTGCTAG	3.63 z-score
TCAAGAATAATTTTTTAGACTGTGCTA	-0.391 z-score
TCACATATACACTGTGTAACTGTGCTA	0.443 z-score
GACGGACTGGACTACCGGGACGTGCTA	-0.515 z-score
GACGGACTGGACTTTTGGGACGTGCTA	-0.582 z-score
GACGGTTCCGGTATCGGGACGTGCTAG	3.78 z-score
GACGGTTTCGGGTATCCGGACGTGCTA	4.94 z-score

Block 5
Target: Probable WRKY transcription factor 11, DNA-binding domain (WRKY11, Arabidopsis thaliana, UniProt Q9SV15, residues 228-325)
Technique: DNA-protein interaction ELISA
Form: double-stranded DNA, one strand shown
Medium: in vitro, bacterial lysate
Concentration: not given
Notes: whole dsDNA probe, crude lysate protein
Relative to: highest signal in screen
Direction: higher = stronger binding
Target sequence (chain): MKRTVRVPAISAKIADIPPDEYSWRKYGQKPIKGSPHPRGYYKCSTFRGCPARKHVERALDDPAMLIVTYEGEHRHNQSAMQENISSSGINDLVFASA
Oligonucleotide	relative absorbance
AAAAAATTCCTGTCCGCTCTCGCTCCAAAA	16.7 % of maximum
AAAAAACTGGTGTATCTCCTCAATTAAAAA	17 % of maximum
AAAAAATCGGTACGCACCCCGGACTCAAAA	17.3 % of maximum
AAAAAAACCCTGTGTCGGCCGATAAAAAA	14.7 % of maximum
AAAAAAGTGTGTGGCTCAGGATTCCCAAAA	14.1 % of maximum
AAAAAAGATCTAGGCCTTGGGACTCAAAAA	10.7 % of maximum
AAAAAACTACAACCTGCGCGGTGGTCAAAA	21 % of maximum
AAAAAACTGCTTGCCCCTGTCTCCATAAAA	15.8 % of maximum
AAAAAACCTTCCCCCTCTTCTGCCTTAAAA	18.4 % of maximum
AAAAAATTCACTTTTACCTTTGTGTTAAAA	14.1 % of maximum
AAAAAATTTATACTTGATCCTGGCTTAAAA	15.3 % of maximum
AAAAAATGGAAAGACCTATACCGGTCAAAA	27.9 % of maximum
AAAAAAGTCCGCCCTTAATTCATATTAAAA	34 % of maximum
AAAAAATTGCCGTCATAATTGTGGTAAAAA	15.3 % of maximum
AAAAAAGGGAGTCATGCTTCTTGTTTAAAA	16.7 % of maximum
AAAAAACTTCTAGTTTATGCTTCCGTAAAA	17 % of maximum
AAAAAATCTTCTTGTTTCTTATTTCTAAAA	15.6 % of maximum
AAAAAAGACCGCAGCAAGAATTAAATAAAA	11.2 % of maximum
AAAAAAGGCGGTCGTAGTTGTGGGAGAAAA	31.1 % of maximum
AAAAAATATGCTACTCCACCTTGATGAAAA	16.1 % of maximum
AAAAAATGCCCTTTTTATCTTTATGTAAAA	17.3 % of maximum

Block 6
Target: Centromere-binding protein 1, full length, N-terminal tag (CBF1, Saccharomyces cerevisiae, UniProt P17106, residues 1-351)
Sequence of UniProt P17106 (whole entry, looked up): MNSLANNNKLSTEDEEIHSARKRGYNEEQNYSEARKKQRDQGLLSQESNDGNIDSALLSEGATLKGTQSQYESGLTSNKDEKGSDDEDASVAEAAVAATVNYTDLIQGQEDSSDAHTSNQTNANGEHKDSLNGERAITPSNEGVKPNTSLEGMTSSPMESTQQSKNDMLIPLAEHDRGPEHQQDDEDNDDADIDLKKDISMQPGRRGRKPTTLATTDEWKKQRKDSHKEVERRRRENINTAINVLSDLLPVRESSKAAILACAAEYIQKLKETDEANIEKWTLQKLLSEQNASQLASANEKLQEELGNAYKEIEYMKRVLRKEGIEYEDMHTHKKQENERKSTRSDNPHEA
Technique: protein-binding microarray
Form: double-stranded DNA, one strand shown
Medium: in vitro
Concentration: 0.8 µM
Notes: whole 60-bp probe, no competitor
Direction: higher = stronger binding
Oligonucleotide	fluorescence intensity
CTAATTCCTATGTCCCATGTGGTTGGTTGCAATTTCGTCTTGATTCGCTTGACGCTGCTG	617 a.u.
GAAAACAGAGAAACGATCATGATGGGAAAGCGGTAGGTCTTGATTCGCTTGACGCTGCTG	496 a.u.
CTAAGTTGATAACGTCAGGTGGAAAACCGAAAGTTCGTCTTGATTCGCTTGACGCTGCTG	788 a.u.
GAATCGTCGATATGCGTCACCAGGATGTCTATTTAGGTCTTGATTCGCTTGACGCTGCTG	502 a.u.
GAATGTGCGGATTCTGATGTAATTGTTGGGATTTAGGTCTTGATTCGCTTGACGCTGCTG	479 a.u.
GAACACAATCATCATGATGTTTTAGAGCTTCATTAGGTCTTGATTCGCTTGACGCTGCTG	513 a.u.
GAACTAGCTGAACATCAGCTCAATCGGACATAATAGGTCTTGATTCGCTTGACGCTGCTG	502 a.u.
CCTAACTACTATAACGTGCTTGCATAGCTTCGTACAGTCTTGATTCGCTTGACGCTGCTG	715 a.u.
GAACTTTATGAGGGTAACATCAATTCAAGAAGGTAGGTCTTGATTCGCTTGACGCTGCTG	559 a.u.
CTATAGAATCCCCATCACGTACGAGTTGAAGAATTCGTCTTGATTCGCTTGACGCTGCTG	568 a.u.
GAAAGTTACAATTTTCTCATCACCCCGAAACAATAGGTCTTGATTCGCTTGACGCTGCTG	563 a.u.
CTATTGTATTCTTTTGGTAACGTGTATCTCAAATTCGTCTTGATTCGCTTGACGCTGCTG	1530 a.u.
GAAATGCTAGTATGTAGTGATGGCTGCATGGTATAGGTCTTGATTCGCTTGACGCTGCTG	539 a.u.
CTACGGCTGAAAATTTTCACCACGAGCAGTTTCTTCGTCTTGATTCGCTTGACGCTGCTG	594 a.u.
CTATGCCAGAAACGTGACGTGAAATACCTACTATTCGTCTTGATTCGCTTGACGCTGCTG	3940 a.u.
GAAGCCGCTTTGTTCCTGATGTTCTCCATTTTTTAGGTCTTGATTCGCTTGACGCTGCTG	499 a.u.
GAACCTGCTTGAAAGCACATGATATCACCAGACTAGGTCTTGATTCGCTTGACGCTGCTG	1290 a.u.
CTATCCAGTCTCATGCACATGTCAAATATGTGGTTCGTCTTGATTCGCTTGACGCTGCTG	920 a.u.
CTATGTGTGATATATTACATCAGAGGAAATAAATTCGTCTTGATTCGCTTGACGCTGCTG	524 a.u.
CTACGAAGCACGTGACACGTTCCCTTCAAACATTTCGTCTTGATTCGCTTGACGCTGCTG	21800 a.u.
GAAGCTCCTAAATGTCACCCTATAGAAAAAAAATAGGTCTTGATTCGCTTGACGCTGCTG	631 a.u.
GAAACAACTTTGTCACACGTTCTAAAAATAAAATAGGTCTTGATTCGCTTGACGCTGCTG	779 a.u.
